Published values collected from several papers.
Each numbered part is a random draw from the data of one study; scales do not carry over between parts. Values joined by “and” are separate records of one study, mostly repeats; a detail may differ.
Chain of UniProt P61075 (whole entry, looked up): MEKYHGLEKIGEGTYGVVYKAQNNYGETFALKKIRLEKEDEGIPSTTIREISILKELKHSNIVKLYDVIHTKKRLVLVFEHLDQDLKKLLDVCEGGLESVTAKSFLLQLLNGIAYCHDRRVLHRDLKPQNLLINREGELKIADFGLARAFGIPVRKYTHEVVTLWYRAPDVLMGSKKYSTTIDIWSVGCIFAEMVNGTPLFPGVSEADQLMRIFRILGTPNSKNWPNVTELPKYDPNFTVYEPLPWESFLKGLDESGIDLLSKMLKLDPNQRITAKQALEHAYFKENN
Chain of UniProt Q8NI60 (whole entry, looked up): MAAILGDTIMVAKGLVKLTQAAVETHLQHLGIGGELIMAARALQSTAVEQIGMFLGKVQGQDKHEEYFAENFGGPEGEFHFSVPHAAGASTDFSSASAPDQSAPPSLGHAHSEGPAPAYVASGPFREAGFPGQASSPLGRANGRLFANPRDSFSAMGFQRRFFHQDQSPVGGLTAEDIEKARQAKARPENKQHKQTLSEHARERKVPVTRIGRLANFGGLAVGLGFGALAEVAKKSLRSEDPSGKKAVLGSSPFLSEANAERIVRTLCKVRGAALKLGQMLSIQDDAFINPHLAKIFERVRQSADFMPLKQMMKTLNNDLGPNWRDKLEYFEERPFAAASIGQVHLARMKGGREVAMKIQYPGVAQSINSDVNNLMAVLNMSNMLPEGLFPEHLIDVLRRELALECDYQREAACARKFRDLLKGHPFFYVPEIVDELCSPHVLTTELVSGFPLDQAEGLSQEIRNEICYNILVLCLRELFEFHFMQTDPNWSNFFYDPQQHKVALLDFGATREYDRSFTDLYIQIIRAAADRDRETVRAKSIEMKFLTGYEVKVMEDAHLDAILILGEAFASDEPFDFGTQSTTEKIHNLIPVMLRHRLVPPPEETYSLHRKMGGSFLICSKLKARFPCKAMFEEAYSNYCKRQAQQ

Sample 1
Organism: Sarcocystis neurona
Read-out: parasite growth
Concentration: concentration not given
Notes: first screen
Baseline: untreated
For `CN1CC[C@@H](c2ccc(F)cc2)[C@H](COc2ccc3c(c2)OCO3)C1`, “log2 fold change” read -0.23.
`CCCCCCCCCOc1ccc2[nH]cc(CCN)c2c1`: “log2 fold change” 0.09.
`CC(NC(C)(C)C)C(=O)c1cccc(Cl)c1.Cl` (centres unmarked): “log2 fold change” -0.02.
`COc1cc(N)c(Cl)cc1C(=O)NC1CN2CCC1CC2.Cl` (centres unmarked): “log2 fold change” -0.02.

Sample 2
Cell line: HEK-293T/ACE2
Concentration: concentration not given
Time: 16 (unit not given)
Baseline: vehicle
`CNS(=O)(=O)Cc1ccc2[nH]cc(CCN(C)C)c2c1` gave a viability of 101%.
The viability of `OC[C@@H](O)[C@@H](O)[C@H](O)[C@H](O)CO` is reported as 97.8%.
`COC(=O)/C=C/C(=O)OC` gave a viability of 103%.

Sample 3
SMILES: c1ccc(Oc2ccc(Nc3c4c(nc5ccccc35)CCC4)cc2)cc1
Organism: Leishmania donovani
For parasite growth; DD8 amphotericin B-resistant, promastigotes; 0.033 µM: inhibition read 4% and 2% and 1%.
It gave 41% for inhibition (parasite growth; 6.66 µM, promastigote).
parasite growth; DD8 amphotericin B-resistant, intracellular amastigotes; 0.2 µM — inhibition: 12% and 8% and 11%.
parasite viability, resazurin; DD8, promastigotes; 6.66 µM — inhibition: 99% and 100% and 91%.
parasite growth; DD8 amphotericin B-resistant, promastigotes; 0.066 µM — inhibition: 1% and 2%.

Single results of other studies
Read-out: cell-free assay
Technique: competition with immobilised ligand
Concentration: 1 µM
`Cc1c(C(=O)O)cc(-c2ccc(C3CCNCC3)cc2)c2ccc(-c3ccc(C(F)(F)F)cc3)cc12` has a remaining binding of 100% (Cyclin-dependent kinase 2 homolog (CRK2, Plasmodium falciparum, UniProt P61075)).
The remaining binding of `O=C(NCc1ncc(C(F)(F)F)cc1Cl)c1ccc2c(c1)C1(CCS(=O)(=O)CC1)[C@H](C1CC1)N2S(=O)(=O)c1ccc(F)cc1` is reported as 96% (Atypical kinase COQ8A, mitochondrial (COQ8A, Homo sapiens, UniProt Q8NI60)).
